Measurements collected from several papers.
Lines come from different studies, so protocols differ. “And” joins repeats or separate records; there may be more than shown. ± marks the error that the study gave.

For O=C1Nc2cc3[nH]nc(-c4ccncc4)c3cc2CN1Cc1ccccc1, “progressive disease, best response” read 67% (RECIST v1.1; human, relapsed or refractory advanced solid tumours; intravenous, 7.2 mg/kg).
O=C(O)CCC(=O)O.[2H]C([2H])([2H])Oc1cc(C)c2[nH]ccc2c1CN1CC[C@@H](C2CC2)C[C@H]1c1ccc(C(=O)O)cc1 has a trough inhibition of greater than 90% (alternative complement pathway activity, Wieslab ELISA; human, serum; 125 mg twice daily, multiple ascending dose).
Cn1cc(Nc2nccc(-c3ccc4c(c3)CN(C3COC3)CC[C@H]4NC(=O)c3cn(C(C)(C)C)nn3)n2)cn1: “pathway activation z-score” -0.707 (measured: MIF regulation of immunity; splenic B cells, mice; 30 mg/kg, IgD-activated in vivo; reference: vehicle, direction not given).
COc1ncnn2ccc(-c3cnc4nc(C)n(Cc5nnc([C@@H](C)F)o5)c4c3)c12 — result for “overall response rate”: 42.9% (Homo sapiens, relapsed or refractory AML or MDS; dose not given, splicing factor mutation-negative).
N#Cc1ccn2c(-c3ccncc3)c(-c3ccc(F)cc3)nc2c1 — result for “log2 fold change”: -0.303 (kinase binding, competitor, MIB/MS competition, measured: HST7; Candida albicans cell lysate; 10 µM; reference: DMSO).
CC(C)NCC(O)c1ccc(O)c(O)c1 (centres unmarked) has a sarcomere length of 1.5 µm (ventricular cardiomyocytes, C57BL/6 mouse; dose not given, 0.516 s).
The Aβ42 level of Cc1cc([C@H]2C[C@H]3[C@@H](CF)SC(N)=N[C@@]3(c3ccc(F)cc3F)CO2)on1 is reported as 0.51 ng/g (measured: Aβx-42; Mus musculus wild-type, brain; subcutaneous, 100 mg/kg, 9 h).
COc1nnc2ccc(N3CCC(c4ccc(OCCN5CCN(C)C(=O)[C@H]5C)cc4)CC3)nn12 — result for “time above HEXIM1 threshold”: 1.73 h (human patients; 10 mg once daily, 2-fold above baseline).
Cc1ccc(C(=O)Nc2ccnc(S(N)(=O)=O)c2)c(N2CCCC(F)(F)CC2)n1 has an activity-dependent slowing of 79.6 ± 3.58 % baseline (Macaca mulatta, C-nociceptors; intravenous, 0.6 mg/kg bolus then 0.8 mg/kg/h, 60 min).
For Cc1cc(/C=C2\Oc3cc(OCC4CC4)ccc3C2=O)cc(C)c1OC(C)(C)C(=O)O, mRNA level read “increased” (RT-PCR, measured: ACADL, CPT1α; db/db mice, MCD diet-fed, liver; 30 mg/kg; reference: model group).
CN[C@@H]1COc2c(S(=O)(=O)NC(=O)Nc3c4c(cc5c3CCC5)CCC4)cnn2C1 gave an inhibition of 93.5% (measured: IL-18; human participants, whole blood ex vivo; 300 mg twice daily, multiple doses, 145 h, IL-18, circulating, adjusted for, added: LPS/ATP; reference: baseline).
Under “overall survival rate”, CCN(Cc1nc2c(N)nc3cc(-c4cc[nH]n4)ccc3c2[nH]1)C(C)=O is recorded as 23% (Kaplan-Meier; advanced solid tumour patients; dose not given, 12 months).
For CCOCc1nc(O)c(-c2nnc(Cc3ccc(Cl)cn3)o2)c(O)c1-c1c(OC)cccc1OC, the MAP change was -1.2 ± 0.4% (instrumented anaesthetised rat; intravenous infusion, 1 µg/kg/min for 15 min, 15 min; reference: baseline).
The train-of-four ratio of CN(C)C(=O)Oc1cccc([N+](C)(C)C)c1 is reported as 92.4 (neuromuscular block reversal; rat; dose not given, 13 (unit not given), added: cisatracurium; reference: T1 twitch).
For Cc1cc(F)cc2c(CCC(=O)N[C@@H]3C(=O)NC[C@H]3O)c(-c3ccc(F)cc3)[nH]c12, “urine albumin/creatinine ratio” read 493 µg/mg and 223 µg/mg and 677 µg/mg and 2760 µg/mg and 1040 µg/mg and 5920 µg/mg (APOL1 G2 mice, IFNγ-induced; 30 mg/kg twice daily, day 9).
COc1nc(NCc2cn(-c3ccc(C(=O)Nc4ccc(C)cc4)cc3)nn2)nc(OC)n1: “maximum non-toxic concentration” 40.2 ± 1.23 nM (MTT; normal colonocytes, rat; 72 h).
For Cn1cc([C@H]2C[C@H]3CSC(N)=N[C@@]3(c3ccc(F)cc3F)CO2)cn1, “brain Aβ40 level” read 1.46 ng/g (measured: Aβx-40; wild-type mouse, brain; subcutaneous, 50 mg/kg, 13 h).
O=c1cc(-c2ccc(O)cc2)oc2c([C@@H]3OC[C@H](O)[C@H](O)[C@H]3O)c(O)c([C@@H]3O[C@H](CO)[C@@H](O)[C@H](O)[C@H]3O)c(O)c12: E/E′ ratio “decreased” (HFpEF mice; oral, 20 and 40 mg/kg/day).
Cn1cc(Nc2nc(N)nc(-c3cccc(-n4ccc5cc(C6CC6)cc(F)c5c4=O)c3CO)n2)cn1 gave an inhibition of 90.1% (CD63 upregulation, measured: CD63; basophils (CD123+ HLA-DR-), healthy humans, whole blood ex vivo; 300 mg twice daily (multiple dose), 336 h, added: anti-IgE).
N#Cc1ccc2c(c1)[C@H]1CCCN(C(=O)c3ccc4[nH]cnc4c3)[C@H]1C2 — result for “change from baseline”: 0.03 pmol/L (measured: fasting C-peptide; human, Phase II trial; oral, 240 mg once daily, day 28, adjusted mean, SE).
C[C@@H](Nc1cc(F)cc(F)c1)c1cc(C(=O)N(C)C)cc2c(=O)cc(N3CCOCC3)oc12 — result for “pPRAS40 H-score change”: -42.2% (immunohistochemistry, measured: phospho-PRAS40; human, tumor biopsy; oral, 120 mg twice daily continuous, 312 h after first dose; reference: baseline, direction not given).
Under “percent change from baseline”, C[C@H]1C[C@H]2CSC(N)=N[C@@]2(c2nc(NC(=O)c3ccc(OC(F)F)cn3)cs2)CO1 is recorded as -40.3% (measured: total Aβ; healthy adults, plasma; 15 mg once daily, day 2; reference: placebo).
For Cc1n[nH]c2ccc(-c3cc(OC[C@@H](N)Cc4ccccc4)cnc3-c3ccoc3)cc12, “log2 fold change” read -0.0528 (kinase binding, competitor, MIB/MS competition, measured: PBS2; Candida albicans cell lysate; 1 µM; reference: DMSO).
N#Cc1ccc2c(c1)[C@H]1CCCN(C(=O)c3ccc4[nH]cnc4c3)[C@H]1C2: “total urinary corticosteroid excretion” 176% (T2DM patients with overweight or obesity, urine; oral, 80 mg, day 14, 0-24 h, multiple dosing, adjusted geometric mean; reference: baseline day -1, -24-0 h).
Under “overall response rate”, CN[C@@H](C)C(=O)N[C@H]1CN(S(=O)(=O)c2cccc(S(=O)(=O)N3CC[C@H]4CC[C@@H](C(=O)NC(c5ccccc5)c5ccccc5)N4C(=O)[C@@H](NC(=O)[C@H](C)NC)C3)c2)CC[C@H]2CC[C@@H](C(=O)NC(c3ccccc3)c3ccccc3)N2C1=O is recorded as 20% (RECIST 1.1; advanced pancreatic cancer patients; dose not given, efficacy-evaluable, added: AG).
N#Cc1ccc2c(-c3ccncc3)c(-c3ccc(F)cc3)nn2c1: “log2 fold change” -0.271 (kinase binding, competitor, MIB/MS competition, measured: CEK1; Candida albicans cell lysate; 100 nM; reference: DMSO).
Under “fractional hepatic DNL”, COc1ccccc1[C@H](Cn1c(=O)n(C(C)(C)C(=O)O)c(=O)c2c(C)c(-c3ncco3)sc21)OC1CCOCC1 is recorded as 8.44 % new palmitate ([1-13C]acetate infusion, isotopomer analysis; overweight or obese healthy men, plasma VLDL-TG palmitate; oral, 20 mg single dose, 4 h post-dose, added: oral fructose).
NC(=O)c1cnc2[nH]ccc2c1N[C@@H]1[C@@H]2CC3C[C@H]1C[C@@](O)(C3)C2 has a percent change of 0.38% (CD8+ effector T cells, flow cytometry; Japanese humans, peripheral blood; 60 mg single dose; reference: baseline).
CC(C)(C)c1cc(C(C)(C)CO)c(O)cc1NC(=O)c1c[nH]c2ccccc2c1=O — result for contraction AUC: “no effect” (isolated rat colon; 1 nM to 10 µM).
COc1ccc(NC(=O)c2ccc(-n3cc(CNc4nc(OC)nc(OC)n4)nn3)cc2)cc1: “maximum non-toxic concentration” 31.43 ± 0.23 nM (MTT; normal colonocytes, rat; 72 h).
CC#CC(=O)N[C@H]1CCCN(c2c(F)cc(C(N)=O)c3[nH]c(C)c(C)c23)C1 — result for “change from baseline in serum IgM”: 16.7 mg/L (healthy volunteers, single ascending dose, serum; 0.3 mg, day 10).
For FC(F)(F)Oc1cccc(-c2cnc3ccc(-c4ccncc4)nn23)c1, the tumour bioluminescence was 1.85e+10 photons/s and 5.24e+10 photons/s and 2.9e+10 photons/s and 2.75e+10 photons/s and 5.32e+10 photons/s and 2.42e+10 photons/s (bioluminescence imaging; mouse, MDA-MB-231-Luc xenograft; 10 mg/kg, day 14).
O=C(O)CNC(=O)Cc1ccccc1 gave a sarcomere length of 1.72 µm (ventricular cardiomyocytes, C57BL/6 mouse; dose not given, 0.356 s).
NCC(=O)Nc1cncc(-c2nn3c(=O)cc(N4CCNCC4)nc3s2)c1: “inhibition of platelet aggregation” 46.3% (ADP-induced platelet aggregation, light transmission aggregometry; human stable CAD patients on aspirin, platelets ex vivo; 0.04 mg/kg, 15 min post dose, added: 20 µM ADP; reference: placebo difference).
c1ccc(-c2n[nH]cc2-c2ccnc3ccccc23)nc1: “log2 fold change” 0.864 (kinase binding, competitor, MIB/MS competition, measured: NIK1; Candida albicans cell lysate; 1 µM; reference: DMSO).
Under “tumour growth inhibition”, C=CCn1c(=O)c2cnc(Nc3ccc(N4CCN(C)CC4)cc3)nc2n1-c1ccc2c(n1)[C@@](O)(CC)CC2 is recorded as 49.6% (MDA-MB-231 xenograft, BALB/c nude mice; oral, 80 mg/kg once daily x 28, day 41; reference: vehicle).
For C[C@H]1O[C@@H](O[C@H]2CC[C@@]3(C)[C@@H](CC[C@]4(C)[C@@H]3C=C[C@]35OC[C@@]6(CCC(C)(C)C[C@H]63)[C@@H](O)C[C@]54C)[C@]2(C)CO)[C@H](O)[C@@H](O[C@@H]2O[C@H](CO)[C@@H](O)[C@H](O)[C@H]2O)[C@H]1O, the protein level was 0.35 and 0.217 and 0.328 (Western blot, measured: caspase3; mice, normal control diet, liver; dose not given, high dose, unit not given; reference: β-actin).
For C=CC(=O)Nc1cc(Nc2nccc(Nc3cc(Cl)c(F)cc3C(C)(C)O)n2)c(OC)cc1N1CC[C@@H](N(C)C)C1, “disease control rate” read 83.3% (human, EGFR exon20ins NSCLC; concentration not given, other subtypes).
For CNC(=O)c1ccc(N2C(=S)N(c3ccc(C#N)c(C(F)(F)F)c3)C(=O)C2(C)C)cc1F, CXCL10 level read “increased” (ELISA; H22 tumour-bearing mice, tumour tissue; dose not given).
Under “overall response rate”, Cc1cc(C)c(CNC(=O)c2cc(Cl)c3c(c2C)O[C@@](C)([C@H]2CC[C@H](N(C)C)CC2)O3)c(=O)[nH]1 is recorded as 55% (IWG criteria, CR or PR; relapsed/refractory PTCL patients; dose not given).
For CCCCC1(CCCC)CN(c2ccccc2)c2cc(SC)c(OCC(=O)N[C@@H](C(=O)NCC(=O)O)c3ccccc3)cc2S(=O)(=O)C1, the plasma C4 was 71.8 ng/mL (measured: 7α-hydroxy-4-cholesten-3-one; human, plasma; 15 mg once daily, day 7).
For N=C(N)NCCC[C@H](NC(=O)[C@H](CCCNC(=N)N)NC(=O)[C@H](CCCCN)NC(=O)[C@H](CCC(N)=O)NC(=O)[C@H](CCCCN)NC(=O)[C@H](Cc1ccc(O)cc1)NC(=O)[C@@H](N)CCCCN)C(=O)N[C@@H](CO)C(=O)N[C@@H](Cc1ccc(O)cc1)C(=O)N[C@@H](CCCCN)C(=O)O, “median change in Schiff score” read -1 (human, dentin hypersensitivity patients; topical to tooth, 10 µg/tooth repeated, day 36, phase 1/2a trial; direction not given).
The Aβ42 level of Cc1coc([C@H]2C[C@H]3[C@@H](CF)SC(N)=N[C@@]3(c3ccc(F)cc3F)CO2)n1 is reported as 0.73 ng/g (measured: Aβx-42; Mus musculus wild-type, brain; subcutaneous, 80 mg/kg, 14 h).
With CCN1CCN(Cc2ccc(Nc3ncc(F)c(-c4cc(F)c5nc6n(c5c4)[C@H](C)CCC6)n3)nc2)CC1 the non-CR/non-PD was 0% (human advanced solid tumours; 300 mg, phase Ia monotherapy RECIST 1.1).
COc1cc2cc(-c3ccc(CC(=O)Nc4cc(C(C)(C)C(F)(F)F)no4)cn3)cnc2cc1OC: “disease control rate” 78% (RECIST v1.1; human RET-altered solid tumours; 11 50 mg tablets, phase I).
OC(CCN1CCCCC1)(c1ccccc1)C1CC2C=CC1C2 (centres unmarked) — result for “EEG theta power, O2 Pz”: 5.2 µV² (resting-state EEG; healthy elderly humans; oral, 2 mg, eyes open, LS mean).
Under “overall response rate”, COc1ccc(F)cc1C(=O)NCc1ccc(-c2nn([C@@H](C)C(F)(F)F)c(N)c2C(N)=O)cc1 is recorded as 67% (CLL/SLL patients; dose not given, prior chemo, CD20, BTK agents).
